# Results gathered from unrelated publications.
# A part holds a random share of what one study measured.
# Sequence of UniProt Q9P0L2 (whole entry, looked up): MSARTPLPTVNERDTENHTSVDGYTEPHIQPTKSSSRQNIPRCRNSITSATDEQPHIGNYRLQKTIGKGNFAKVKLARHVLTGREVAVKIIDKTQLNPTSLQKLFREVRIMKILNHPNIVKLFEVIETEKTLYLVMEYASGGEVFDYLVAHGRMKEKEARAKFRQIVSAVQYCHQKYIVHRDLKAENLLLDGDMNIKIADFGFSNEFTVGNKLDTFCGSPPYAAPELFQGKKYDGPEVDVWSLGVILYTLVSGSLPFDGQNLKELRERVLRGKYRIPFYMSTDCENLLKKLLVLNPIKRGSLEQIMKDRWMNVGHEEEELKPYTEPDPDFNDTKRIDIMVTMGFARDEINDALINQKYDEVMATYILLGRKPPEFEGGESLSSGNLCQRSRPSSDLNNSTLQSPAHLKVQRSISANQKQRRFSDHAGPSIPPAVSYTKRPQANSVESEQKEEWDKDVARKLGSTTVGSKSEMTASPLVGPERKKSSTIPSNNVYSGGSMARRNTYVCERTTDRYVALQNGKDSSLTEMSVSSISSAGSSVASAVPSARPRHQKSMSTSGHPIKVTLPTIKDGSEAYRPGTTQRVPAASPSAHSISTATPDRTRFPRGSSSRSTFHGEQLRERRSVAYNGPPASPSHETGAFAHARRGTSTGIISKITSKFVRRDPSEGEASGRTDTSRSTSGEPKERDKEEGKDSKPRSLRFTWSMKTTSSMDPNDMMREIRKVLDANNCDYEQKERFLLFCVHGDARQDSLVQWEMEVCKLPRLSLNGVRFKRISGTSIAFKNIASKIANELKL
# Sequence of UniProt Q9P2K8 (whole entry, unmodified, looked up): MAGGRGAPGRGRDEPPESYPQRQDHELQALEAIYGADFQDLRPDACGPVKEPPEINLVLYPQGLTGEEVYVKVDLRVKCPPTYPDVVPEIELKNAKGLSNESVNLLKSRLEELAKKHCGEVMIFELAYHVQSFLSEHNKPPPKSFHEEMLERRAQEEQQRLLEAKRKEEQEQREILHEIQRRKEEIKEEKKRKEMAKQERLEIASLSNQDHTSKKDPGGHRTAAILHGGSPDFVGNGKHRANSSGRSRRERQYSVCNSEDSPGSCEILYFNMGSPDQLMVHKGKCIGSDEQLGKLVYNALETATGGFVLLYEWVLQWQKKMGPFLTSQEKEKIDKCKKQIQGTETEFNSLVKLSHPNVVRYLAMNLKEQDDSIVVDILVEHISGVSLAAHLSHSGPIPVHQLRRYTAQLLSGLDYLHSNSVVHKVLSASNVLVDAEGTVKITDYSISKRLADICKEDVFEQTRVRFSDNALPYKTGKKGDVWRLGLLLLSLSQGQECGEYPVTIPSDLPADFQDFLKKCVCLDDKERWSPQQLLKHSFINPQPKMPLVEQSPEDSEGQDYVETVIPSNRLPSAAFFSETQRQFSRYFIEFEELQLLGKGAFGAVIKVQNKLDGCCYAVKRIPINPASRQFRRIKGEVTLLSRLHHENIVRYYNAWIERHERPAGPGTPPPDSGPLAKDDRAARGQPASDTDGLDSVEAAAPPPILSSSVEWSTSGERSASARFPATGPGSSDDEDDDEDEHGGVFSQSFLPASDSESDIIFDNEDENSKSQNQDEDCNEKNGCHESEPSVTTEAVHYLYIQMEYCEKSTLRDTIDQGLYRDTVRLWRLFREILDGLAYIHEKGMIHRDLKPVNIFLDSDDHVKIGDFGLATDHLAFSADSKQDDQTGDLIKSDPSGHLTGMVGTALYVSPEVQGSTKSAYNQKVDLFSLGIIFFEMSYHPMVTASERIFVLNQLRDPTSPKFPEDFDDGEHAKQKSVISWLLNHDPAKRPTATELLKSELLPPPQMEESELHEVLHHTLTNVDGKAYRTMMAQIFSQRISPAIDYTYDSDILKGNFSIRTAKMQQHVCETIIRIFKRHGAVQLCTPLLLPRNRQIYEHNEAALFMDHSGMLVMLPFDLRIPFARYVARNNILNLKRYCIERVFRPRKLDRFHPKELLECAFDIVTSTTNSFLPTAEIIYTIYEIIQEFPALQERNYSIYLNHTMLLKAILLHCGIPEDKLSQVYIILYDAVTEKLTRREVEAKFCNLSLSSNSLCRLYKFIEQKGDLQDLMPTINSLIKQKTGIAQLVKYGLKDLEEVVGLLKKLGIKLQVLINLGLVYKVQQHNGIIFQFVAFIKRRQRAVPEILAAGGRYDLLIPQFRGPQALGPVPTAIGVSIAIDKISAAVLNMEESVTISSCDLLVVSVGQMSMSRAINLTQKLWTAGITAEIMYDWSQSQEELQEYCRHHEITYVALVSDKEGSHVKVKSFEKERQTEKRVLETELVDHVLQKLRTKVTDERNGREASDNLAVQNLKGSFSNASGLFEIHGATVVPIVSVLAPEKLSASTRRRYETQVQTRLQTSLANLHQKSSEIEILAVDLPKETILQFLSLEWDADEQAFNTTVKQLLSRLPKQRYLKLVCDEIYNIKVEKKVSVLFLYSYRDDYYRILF
# Sequence of UniProt Q9BRS2 (whole entry, looked up): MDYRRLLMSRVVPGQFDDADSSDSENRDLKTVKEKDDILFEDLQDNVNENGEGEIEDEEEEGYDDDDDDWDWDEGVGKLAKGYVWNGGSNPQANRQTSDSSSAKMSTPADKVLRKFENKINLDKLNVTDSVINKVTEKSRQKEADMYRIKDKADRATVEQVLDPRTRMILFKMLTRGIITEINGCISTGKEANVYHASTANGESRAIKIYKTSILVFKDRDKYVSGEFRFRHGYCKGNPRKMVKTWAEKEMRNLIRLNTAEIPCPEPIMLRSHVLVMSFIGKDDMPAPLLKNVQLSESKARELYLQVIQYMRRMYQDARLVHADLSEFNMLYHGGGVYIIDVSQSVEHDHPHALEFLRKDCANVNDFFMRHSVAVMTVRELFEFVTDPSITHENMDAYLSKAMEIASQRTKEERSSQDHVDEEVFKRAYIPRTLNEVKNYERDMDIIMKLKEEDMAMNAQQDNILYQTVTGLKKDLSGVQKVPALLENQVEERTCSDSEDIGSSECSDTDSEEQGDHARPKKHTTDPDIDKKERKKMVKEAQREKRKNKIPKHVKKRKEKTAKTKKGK
# Sequence of UniProt P36897 (whole entry, looked up): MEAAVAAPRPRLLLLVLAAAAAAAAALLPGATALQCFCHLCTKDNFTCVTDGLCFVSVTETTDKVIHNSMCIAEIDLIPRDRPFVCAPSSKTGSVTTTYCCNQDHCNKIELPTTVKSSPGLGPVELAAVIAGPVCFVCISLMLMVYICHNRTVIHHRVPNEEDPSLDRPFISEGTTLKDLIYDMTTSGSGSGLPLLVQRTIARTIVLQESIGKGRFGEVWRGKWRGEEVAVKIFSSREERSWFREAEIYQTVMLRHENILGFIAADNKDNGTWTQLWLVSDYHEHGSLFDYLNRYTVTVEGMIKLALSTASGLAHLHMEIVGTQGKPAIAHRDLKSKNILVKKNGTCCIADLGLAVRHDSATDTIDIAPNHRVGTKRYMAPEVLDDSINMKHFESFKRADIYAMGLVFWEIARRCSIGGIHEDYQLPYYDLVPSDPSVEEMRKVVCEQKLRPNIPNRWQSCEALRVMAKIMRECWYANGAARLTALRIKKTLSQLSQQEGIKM
# Sequence of UniProt O15075 (whole entry, looked up): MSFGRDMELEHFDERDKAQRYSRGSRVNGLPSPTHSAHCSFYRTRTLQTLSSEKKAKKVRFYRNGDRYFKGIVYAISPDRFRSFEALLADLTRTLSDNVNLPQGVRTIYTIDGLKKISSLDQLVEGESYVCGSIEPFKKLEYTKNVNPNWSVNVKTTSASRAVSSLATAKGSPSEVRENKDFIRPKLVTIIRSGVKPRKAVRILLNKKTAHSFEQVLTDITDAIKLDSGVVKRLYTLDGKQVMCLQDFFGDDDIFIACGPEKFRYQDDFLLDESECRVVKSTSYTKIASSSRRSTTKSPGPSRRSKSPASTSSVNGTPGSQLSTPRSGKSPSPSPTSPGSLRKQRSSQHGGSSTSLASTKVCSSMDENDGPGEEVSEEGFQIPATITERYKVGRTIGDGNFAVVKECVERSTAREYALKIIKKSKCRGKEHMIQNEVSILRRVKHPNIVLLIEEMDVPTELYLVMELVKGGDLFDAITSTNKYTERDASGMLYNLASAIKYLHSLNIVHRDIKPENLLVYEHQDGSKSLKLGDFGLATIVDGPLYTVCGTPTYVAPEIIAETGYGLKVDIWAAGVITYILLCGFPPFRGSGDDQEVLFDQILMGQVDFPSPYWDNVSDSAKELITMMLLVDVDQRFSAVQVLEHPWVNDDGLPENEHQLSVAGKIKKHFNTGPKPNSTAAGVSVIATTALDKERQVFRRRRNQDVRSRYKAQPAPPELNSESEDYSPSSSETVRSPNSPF

# Block 1 — observed: enzyme activity; mode: inhibitor; concentration: 0.5 µM; reference: control
# Target: Ribosomal protein S6 kinase beta-1 (RPS6KB1, Homo sapiens, UniProt P23443)
# Sequence of UniProt P23443 (whole entry, looked up): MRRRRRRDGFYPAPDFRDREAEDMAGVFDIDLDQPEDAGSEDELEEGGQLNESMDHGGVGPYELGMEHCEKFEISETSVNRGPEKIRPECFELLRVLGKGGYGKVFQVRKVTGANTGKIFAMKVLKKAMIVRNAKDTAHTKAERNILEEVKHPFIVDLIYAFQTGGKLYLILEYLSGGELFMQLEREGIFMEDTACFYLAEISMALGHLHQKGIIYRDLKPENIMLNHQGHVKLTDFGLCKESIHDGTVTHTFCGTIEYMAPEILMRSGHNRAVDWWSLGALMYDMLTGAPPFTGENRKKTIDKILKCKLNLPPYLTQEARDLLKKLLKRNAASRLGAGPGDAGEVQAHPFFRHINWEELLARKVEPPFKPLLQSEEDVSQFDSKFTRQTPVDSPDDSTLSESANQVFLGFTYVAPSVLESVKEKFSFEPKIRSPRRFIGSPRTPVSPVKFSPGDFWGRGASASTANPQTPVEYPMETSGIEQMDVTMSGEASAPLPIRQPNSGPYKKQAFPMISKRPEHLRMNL
Structure (SMILES),remaining activity
CC(C)[C@H](CO)Nc1nc(Nc2cc(N)cc(Cl)c2)c2ncn(C(C)C)c2n1,95.5%
O=c1c2ccccc2[nH]c(=S)n1CCN1CCC(=C(c2ccc(F)cc2)c2ccc(F)cc2)CC1,97.9%
Nc1[nH]nc2nc3ccccc3nc12,99.8%
O=S(=O)(c1cccc2cnccc12)N1CCCNCC1,76.6%
O=C(O)c1ccc2c3c1cccc3c(=O)n1c3ccccc3nc21,95.9%
NCCNc1ncc(C(N)=O)c(Nc2cccc(C(F)(F)F)c2)n1,87.5%
C#Cc1cccc(Nc2ncnc3cc(OCCOC)c(OCCOC)cc23)c1,95.1%
COc1cc2ncnc(Nc3ccc(Oc4ccccc4)cc3)c2cc1OC,108%
COc1cc2nccc(Oc3ccc(NC(=S)NC(=O)c4ccccc4C)cc3)c2cc1OC,98%
Nc1ccc2ncnc(NCCc3ccc(Oc4ccccc4)cc3)c2c1,99.5%
Cn1c2ccccc2c2c3c(c4c5ccccc5n(CCC#N)c4c21)CNC3=O,6.71%
COc1cc2ncnc(Nc3ccc(F)c(Cl)c3)c2cc1OCCCN1CCOCC1,93.9%
N#CC(C#N)=C(N)/C(C#N)=C/c1ccc(O)cc1,89.5%
COc1ccc(C(=O)Nc2sc3c(c2C(N)=O)CCCC3)cc1OC,84.3%
CCOC(=O)c1c(C)[nH]c(/C=C2\C(=O)Nc3ccccc32)c1C,85.7%

# Block 2 — observed: cell-free assay; technique: competition with immobilised ligand; concentration: 1 µM
# SMILES: CNC(=O)Nc1ccc2c(c1)[C@@]1(CC2)OC(=O)N(CC(=O)N(Cc2ccc(F)cc2)[C@@H](C)C(F)(F)F)C1=O
target,remaining binding [%]
"FGR (Homo sapiens, UniProt P09769)",88
"EIF2AK1 (Homo sapiens, UniProt Q9BQI3)",96
"ALK (Homo sapiens, UniProt Q9UM73, L1196M)",88
"DCLK1 (Homo sapiens, UniProt O15075)",76
"TGFBR1 (Homo sapiens, UniProt P36897)",89
"NTRK3 (Homo sapiens, UniProt Q16288)",82
"Tyrosine-protein kinase ABL1, phosphorylated (ABL1, Homo sapiens, UniProt P00519, E255K)",100
"RIOK1 (Homo sapiens, UniProt Q9BRS2)",100
"MARK1 (Homo sapiens, UniProt Q9P0L2)",100
"Tyrosine-protein kinase ABL1, phosphorylated (ABL1, Homo sapiens, UniProt P00519, H396P)",83
"eIF-2-alpha kinase GCN2, C-terminal kinase domain (EIF2AK4, Homo sapiens, UniProt Q9P2K8, S808G)",100
"PIK3C2G (Homo sapiens, UniProt O75747)",97

# Block 3 — cell line: A-375; concentration: 100 µM; time: 36 h
Compound,viability [%]
CCC(C)n1ncn(-c2ccc(N3CCN(c4ccc(OC[C@H]5CO[C@](Cn6cncn6)(c6ccc(Cl)cc6Cl)O5)cc4)CC3)cc2)c1=O (mixture of isomers),102
CCCCCCCCCCCCCCCC[N+](C)(C)CCN(Cc1ccc(OC)cc1)c1ncccn1,1.88
CC(=O)Oc1cc2c(s1)CCN(C(C(=O)C1CC1)c1ccccc1F)C2 (stereo not drawn),105
CN1[C@@H]2CCC[C@H]1C[C@@H](NC(=O)c1nn(C)c3ccccc13)C2,107
Cn1c(=O)cc(N2CCC[C@@H](N)C2)n(Cc2ccccc2C#N)c1=O,91.7
c1ccc(-c2ccc(C(c3ccccc3)n3ccnc3)cc2)cc1 (stereo not drawn),-0.882
C#C[C@]1(OC(C)=O)CC[C@H]2[C@@H]3CCC4=C[C@@H](OC(C)=O)CC[C@@H]4[C@H]3CC[C@@]21C,9.07
Nc1ncn([C@@H]2O[C@H](CO)[C@@H](O)[C@H]2O)c(=O)n1,35.4
COc1ccc(-c2cc(=O)c3c(O)cc(O[C@@H]4O[C@H](CO[C@@H]5O[C@@H](C)[C@H](O)[C@@H](O)[C@H]5O)[C@@H](O)[C@H](O)[C@H]4O)cc3o2)cc1O,114
CCOCC(O)COc1ccc(NC(=O)CC[S+](C)C)cc1 (stereo not drawn),123

# Block 4 — organism: Sarcocystis neurona; observed: parasite growth; concentration: 10 µM; time: 96 h; notes: second screen; reference: untreated
Compound,log2 fold change
COc1cc(C(=O)NC2CCCNC2)cc(OC)c1OC (stereo not drawn),0.49
COc1cc(C(=O)NS(=O)(=O)c2ccccc2C)ccc1Cc1cn(C)c2ccc(NC(=O)OC3CCCC3)cc12,0.46
COC(=O)Nc1nc2ccc(C(=O)c3ccccc3)cc2[nH]1,1.25
Nc1cc(N2CCCCC2)nc(N)[n+]1[O-],0.4
CC(C(O)c1ccc(O)cc1)N1CCC(Cc2ccccc2)CC1 (stereo not drawn),0.26
CC(C)(C)C(O)/C=C/c1ccc2c(c1)OCO2 (stereo not drawn),0.5
CC(C)(C)NC(=O)[C@@H]1CN(Cc2cccnc2)CCN1C[C@@H](O)C[C@@H](Cc1ccccc1)C(=O)N[C@H]1c2ccccc2C[C@H]1O,0.14
CC(C)Oc1ccc2c(=O)c(-c3ccccc3)coc2c1,2.79

# A few entries again (block 1):
Structure (SMILES),remaining activity
COc1cc2nccc(Oc3ccc(NC(=S)NC(=O)c4ccccc4C)cc3)c2cc1OC,98%
Nc1ccc2ncnc(NCCc3ccc(Oc4ccccc4)cc3)c2c1,99.5%
Cn1c2ccccc2c2c3c(c4c5ccccc5n(CCC#N)c4c21)CNC3=O,6.71%
COc1cc2ncnc(Nc3ccc(F)c(Cl)c3)c2cc1OCCCN1CCOCC1,93.9%
N#CC(C#N)=C(N)/C(C#N)=C/c1ccc(O)cc1,89.5%
COc1ccc(C(=O)Nc2sc3c(c2C(N)=O)CCCC3)cc1OC,84.3%
